Experimental data of several laboratories.
Each numbered part is a random draw from the data of one study; scales do not carry over between parts. Positions count from the first letter of the parent shown.

Block 1 — target: CCND3, cyclin fold, Cln2 fusion (human); technique: yeast growth competition, sequencing; medium: yeast; notes: weak parent motif; reference: not given; reading: higher = stronger binding
Starting sequence: CENPC docking peptide (human); VKTKKRLNFDDKV
| Variant | normalised enrichment score |
| --- | --- |
| F9L | 0.432 |
| K5A | 0.143 |
| R6A | 0.163 |
| K12A | 0.162 |
| L7A | 0.191 |
| K4A | 0.0428 |
| K2A | 0.143 |

Block 2 — technique: RNA Bind-n-Seq; form: RNA; medium: in vitro; tested at: 100 nM; reference: input RNA pool; reading: higher = stronger binding
Target: RING finger protein unkempt homolog, zinc fingers 1-6, SBP tag (UNK, Homo sapiens, UniProt Q9C0B0, residues 30-357)
Chain of UniProt Q9C0B0 (30-357, looked up): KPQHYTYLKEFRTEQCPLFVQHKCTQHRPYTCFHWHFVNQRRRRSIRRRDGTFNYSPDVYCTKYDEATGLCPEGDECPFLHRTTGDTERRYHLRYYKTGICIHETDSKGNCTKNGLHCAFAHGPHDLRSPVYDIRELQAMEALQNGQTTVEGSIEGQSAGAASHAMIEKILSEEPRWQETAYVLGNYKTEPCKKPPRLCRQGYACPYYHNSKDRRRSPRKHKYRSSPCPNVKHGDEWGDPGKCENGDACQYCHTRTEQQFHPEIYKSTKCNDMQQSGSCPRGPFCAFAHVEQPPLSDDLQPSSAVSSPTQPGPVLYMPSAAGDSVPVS
Notes: RNA with constant flanks, vertebrate orthologous sites, ends assumed
Constant ends, left off below: GGGAGUUCUACAGUCCGACGAUC … CAACAGAGGAUUGAGCAUCA
| Sequence | bound/input enrichment [ratio] |
| --- | --- |
| GAAAGUGGCUUCUGCUCCAUUAAAAAGUAAAAAUUGUCCUCCAAAUAUAAAACUCCUUAAUAGAUAUUUUUGAAAUUAAAAUCUUUAAAUUUUAUAAAUCAGCUGUUGCCACUACACAAC | 1.67 |
| UUAGGCCGACAGCGACCUGAACAGGUUAGUCAUCUGUGCACGGCUUCAAAUGGAACAACAGUCUAGUCAGGUUUUUAAUUUCCAUAUGAAAAGCGGCUUUCCCCGAGACUUUCAAAGAAG | 0.205 |
| UAUUCAGAAUCUUCGUAAGUCAUGCUGAGAUCCAAAAGUUCAUUUUGGAGGAUCUGACCAUAGGAUGGUGUUGCCGUAUCAUUCUGUUCUGGUUUUGUUUCUUGUGUGUUGUUUGUGUGU | 0.361 |
| AGAGGAUUAGGUUCGAUCCUUUACGUGUUUAAAAAAAAGCAUAAAAACAUUUUAAAAACAUAGAAAAAUUCAGCAAACCAUUUUUAAAGUAGAAGAGGGUUUUAGGUAGAAAAACGUAUU | 0.725 |
| CUCUUUUCCAGGUUGGAUGUAGUGGAAAAGUCAUAGGAAUUGAUCACAUUAAAGAGCUAGUAGAUGACUCAAUAAAUAAUGUCAGGAAGGAUGAUCCAACACUUCUGUCUUCAGGGAGAG | 0.914 |
| AAGCCAUCUUUUCCACAUUUUCUGUAAAUAAUGGAUAAUCAUUUUAAAAAUUUUUAUUUUUAGUGCUGUUUUAACAAUGUAGAUAGAUCAUAAAUGUACUUGCUGAAUUCAAUCAUUUUU | 0.528 |
| AGGCAAAAAAUCCUGGCUGCUUUUUGUGAGGUAAAGUGCCCGUUGGCAUGUGGUUGAUACCAGCACCAUUGUCCCUAGUCUCUCAGUGUUUCAUUUCUUCCAUACAAGUUCUCAUCAGAC | 0.4 |
| GUCCUUGAUUCACAUUCCUCUCUGUUUGUGUUUAGAGAAAGAAAGAAAAAAAAAGACAUUUUAGCCUUUUUUAAAGUUACUGAUAUAAUUUCUUGUUACUUGGUUGCAUGAAGCUGCCCU | 0.656 |

Block 3 — target: CRIPT, C-terminal peptide; technique: DHFR complementation, deep sequencing; medium: yeast; reference: wild type; reading: higher = weaker binding
Notes: single substitutions, model-inferred values
Starting sequence: ERBIN, PDZ domain 1 (human); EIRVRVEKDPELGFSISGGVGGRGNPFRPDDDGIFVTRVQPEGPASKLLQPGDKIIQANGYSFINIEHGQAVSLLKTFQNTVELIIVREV; partner TKNYKQTSV
| Variant | binding free energy change [kcal/mol] |
| --- | --- |
| A71D | 1.13 |
| A45C | -0.072 |
| V20W | -0.0123 |
| G24Q | 1.82 |
| P10Y | -0.412 |
| R88Y | 1.51 |
| S17Q | 0.919 |
| L74A | 0.0714 |
| V39H | 0.58 |
| I66Q | 0.278 |
| L49R | 0.84 |
| I16D | 1.36 |
| Y61W | 0.132 |
| F35K | 0.923 |

Single results of other studies
| Molecule | target | assay | test system | conditions | scale | measurement | value |
| --- | --- | --- | --- | --- | --- | --- | --- |
| PhoQ, residues 284 288 289 292 302 303 AGGLSV | PhoP, residues 12 14 15 18 19 TQCLL (Escherichia coli, UniProt P23836) | Sort-seq, measured: YFP reporter | E. coli | PhoQ-PhoP variant library, with: 10 µM Mg2+ | reference: high Mg2+ state, higher = stronger signaling | fold induction | 1.3 |

Some of these lines once more (block 2):
| Sequence | bound/input enrichment [ratio] |
| --- | --- |
| AAGCCAUCUUUUCCACAUUUUCUGUAAAUAAUGGAUAAUCAUUUUAAAAAUUUUUAUUUUUAGUGCUGUUUUAACAAUGUAGAUAGAUCAUAAAUGUACUUGCUGAAUUCAAUCAUUUUU | 0.528 |
| GUCCUUGAUUCACAUUCCUCUCUGUUUGUGUUUAGAGAAAGAAAGAAAAAAAAAGACAUUUUAGCCUUUUUUAAAGUUACUGAUAUAAUUUCUUGUUACUUGGUUGCAUGAAGCUGCCCU | 0.656 |
